Results pooled from the literature.
Compare with care: the assays were run in different laboratories.
Effect on: metabolic stability
Species: human
Matrix: liver microsomes

SMILES | tested at | pH | microsomal CLint
Cc1cc(C)c(C#N)c(OCC(=O)c2ccccc2)n1 | 0.5 µM | pH 7.4 | 342 µL/min/mg
Cc1nnc(S(=O)(=O)CC(=O)C23CC4CC(CC(C4)C2)C3)s1 |  |  | 19 µL/min/mg
Cc1cc(C)c(C#N)c(SCC(=O)c2ccsc2)n1 | 0.5 µM | pH 7.4 | 541 µL/min/mg
CCOC(=O)c1cn(CC)c2cc(N3CCC(Cc4ccccc4)CC3)c(F)cc2c1=O | 1 µM |  | 193 µL/min/mg
Cc1cc(C)c(C#N)c(SCC(=O)N2CCOCC2)n1 | 0.5 µM | pH 7.4 | 32 µL/min/mg
CCNc1[nH]c(=O)n(O)c(=O)c1C(=O)NCc1ccccc1 |  |  | 355 µL/min/mg
COc1cccc(CCc2ccccc2OCC(CN(C)C)OC(=O)CCC(=O)O)c1 (racemic) | 0.4 µM |  | 17.4 µL/min/mg
CCn1cc(-c2nc(C)no2)c(=O)c2cc(F)c(N3CCC(Cc4ccccc4)CC3)cc21 | 1 µM |  | 102 µL/min/mg
CCNc1[nH]c(=O)n(O)c(=O)c1C(=O)NCc1ccc(C)c(F)c1 |  |  | 357 µL/min/mg
O=C(C[S+]([O-])Cc1ccco1)C12CC3CC(CC(C3)C1)C2 (stereo not drawn) |  |  | 17.6 µL/min/mg
COc1cc(CO)c(-c2ccc3c(c2O)[C@@H](C)N[C@H](C)C3)c2cccc(O)c12 | 1 µM |  | < 11.6 µL/min/mg
CCNc1[nH]c(=O)n(O)c(=O)c1C(=O)NCc1ccc(F)cc1 |  |  | 336 µL/min/mg

A few entries again:
SMILES | tested at | pH | microsomal CLint
Cc1cc(C)c(C#N)c(SCC(=O)c2ccsc2)n1 | 0.5 µM | pH 7.4 | 541 µL/min/mg
